Published values pooled from the literature.
Target: Alpha-2A adrenergic receptor (ADRA2A, Homo sapiens, UniProt P08913)
UniProt P08913, sequence (whole entry, looked up): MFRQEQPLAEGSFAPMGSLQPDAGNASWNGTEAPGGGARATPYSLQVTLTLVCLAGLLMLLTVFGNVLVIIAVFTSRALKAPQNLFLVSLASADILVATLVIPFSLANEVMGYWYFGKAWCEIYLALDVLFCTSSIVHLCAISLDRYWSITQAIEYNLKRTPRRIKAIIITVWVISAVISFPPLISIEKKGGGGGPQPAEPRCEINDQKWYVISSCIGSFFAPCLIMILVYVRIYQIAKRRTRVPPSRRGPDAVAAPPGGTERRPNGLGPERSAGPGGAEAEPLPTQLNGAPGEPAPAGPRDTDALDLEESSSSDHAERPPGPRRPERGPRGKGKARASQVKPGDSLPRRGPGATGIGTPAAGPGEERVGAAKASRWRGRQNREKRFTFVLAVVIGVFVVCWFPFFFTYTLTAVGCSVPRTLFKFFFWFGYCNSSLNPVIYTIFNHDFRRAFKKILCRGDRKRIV

| SMILES | observed | action | method | tested at | inhibition [%] |
| --- | --- | --- | --- | --- | --- |
| Brc1ccccc1-c1nnc(CSc2nnnn2-c2ccccc2)o1 | ligand displacement | – | radioligand | 10 µM | 4 |
| COc1ccc(C#CC2=C[C@H]3C[C@@]4(OC(=O)C=C24)[C@H]2CC[C@H](C(OC)OC)N32)cc1 | ligand displacement | – | radioligand | 10 µM | 35 |
| COc1ccc(C(=O)Nc2c(-c3cccs3)nc3ccccn23)cc1 | ligand displacement | – | radioligand | 10 µM | < 50 |
| COc1ncc2nc(C)n(Cc3ncc(S(N)(=O)=O)cc3F)c2c1-c1ccccc1 | – | antagonist | cell-based | 10 µM | -3.13 |
| O=C1c2sc(-c3ccc(N4CCC(CO)CC4)nc3F)nc2CCN1c1cccnc1 | ligand displacement | – | radioligand | 1 µM | 2 |
| COCC(=O)N1CCc2cc(-c3csc(NC(=O)c4cc(OC)cc(OC)c4)n3)ccc21 | cell-free assay | – | – | 10 µM | 2 |
| Cc1[nH]nc2c1N=C(c1ccccc1Cl)c1cnc(N3CCOCC3)cc1N2 | cell-free assay | – | – | 10 µM | 5 |
| Cn1ccc2cc(-n3c(=O)[nH]c4sc5c(c4c3=O)CCCC5)ccc21 | cell-free assay | – | radioligand | 10 µM | 12 |
